Results from different studies.
Protocols differ between the studies behind these lines.
Target: Mitogen-activated protein kinase 6 (MAPK6, Homo sapiens, UniProt Q16659)

For C=CC(=O)Nc1cc(-c2nn(C3CCN(CCNC(=O)[C@H](C)CCC45CC6CC(CC(C6)C4)C5)CC3)c3ncnc(N)c23)ccc1Oc1ccccc1, the inhibition was 21.7% (inhibitor, KiNativ profiling; biochemical; 2 µM).
The remaining binding of Nc1ncc2c(n1)-c1c([nH]c3ccc(C4=CCOCC4)cc13)CCC2 is reported as 92% (binding, competition with immobilised ligand; 1 µM).
CNC(=O)C1CCN(c2cc(C)c(F)cc2NC(=O)c2ccc(-c3cc(O)ccc3C)c(C)c2)CC1 gave a remaining binding of 100% (binding, competition with immobilised ligand; 1 µM).
CC(C)=CC1OC(C)(C)C2C=C3C(=O)C(Cl)=CC(O)C3C3C(O)C4OC4C(=O)C132 (stereo not shown) gave a remaining binding of 68% (cell-free assay, competition with immobilised ligand; 10 µM).
C=CC(=O)N1CCCC(n2c(=O)c3ncccc3n(Cc3ccc(Oc4ccccc4)cc3)c2=O)C1 (stereo not shown) has a remaining binding of 93% (cell-free assay, competition with immobilised ligand; 1 µM).
For C=CC(=O)N1CCc2ccc(-n3c(=O)ccc4cnc5ccc(-c6cnn(C)c6)cc5c43)cc21, the remaining binding was 100% (KINOMEscan; 1 µM; baseline: DMSO control).
The remaining binding of Cc1cnc2nc1Nc1cccc(c1)COC/C=C/COCc1cc(ccc1OCCN1CCOCC1)N2 is reported as 88% (binding, competition with immobilised ligand; 0.1 µM).
The remaining binding of CCN1CCN(Cc2ccc(C(=O)Nc3ccc(C)c(NCc4cnc5[nH]ccc5c4OC)c3)cc2C(F)(F)F)CC1 is reported as 100% (binding, competition with immobilised ligand; 1 µM).
For COc1c(Cl)cccc1Nc1c(-c2ccncc2C#C[C@@]2(C)CCCN2C(=O)/C=C/CN(C)C)[nH]c2c1C(=O)NCC2, the remaining binding was 100% (binding, competition with immobilised ligand; 3 µM).
For COc1cc(Nc2nc(C)cc(-c3cnn4nc(OC)ccc34)n2)cc(C(F)(F)F)c1, the remaining activity was 92% (inhibitor; 1 µM, ERK3; baseline: control).
The remaining binding of CNC1C[S+]2CC[S+]3CC[S+](C1)[Ru-4]321([N]=C=S)[n]2c3ccc(OC)cc3c3c4c(c5cc(F)c[n+]1c5c32)C(=O)NC4=O (stereo not shown) is reported as 91% (KinomeScan; 0.1 µM; baseline: untreated).
COc1cc(Nc2nccc(-c3cnn4nc(OC)ccc34)n2)cc(C(F)(F)F)c1 has a remaining binding of 100% (binding, competition with immobilised ligand; 1 µM).
Cc1ccc(-c2c(/C=C(\C#N)C(=O)NC(C)C)n(CCCO)c3ncnc(N)c23)cc1 gave a remaining binding of 100% (cell-free assay, competition with immobilised ligand; 1 µM).

Repeated from above:
C=CC(=O)N1CCCC(n2c(=O)c3ncccc3n(Cc3ccc(Oc4ccccc4)cc3)c2=O)C1 (stereo not shown) has a remaining binding of 93% (cell-free assay, competition with immobilised ligand; 1 µM).
